# Earlier results, collected from citations in different studies.
# Protocols differ between the studies behind these lines. “And” joins repeats or separate records; there may be more than shown. Numbers after ± are the reported error.
# ribH: 6,7-dimethyl-8-ribityllumazine synthase (ribH, Mycobacterium tuberculosis, UniProt P9WHE9)
# UniProt P9WHE9, sequence (whole entry, looked up): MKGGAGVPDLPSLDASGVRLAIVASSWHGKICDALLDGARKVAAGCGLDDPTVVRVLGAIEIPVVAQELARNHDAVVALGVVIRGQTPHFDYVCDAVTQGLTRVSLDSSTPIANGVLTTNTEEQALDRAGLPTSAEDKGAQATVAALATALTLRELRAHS
# Matrix protein 2: Matrix protein 2 (Influenza A virus, UniProt P0DOF5)
# UniProt P46098, sequence (whole entry, looked up): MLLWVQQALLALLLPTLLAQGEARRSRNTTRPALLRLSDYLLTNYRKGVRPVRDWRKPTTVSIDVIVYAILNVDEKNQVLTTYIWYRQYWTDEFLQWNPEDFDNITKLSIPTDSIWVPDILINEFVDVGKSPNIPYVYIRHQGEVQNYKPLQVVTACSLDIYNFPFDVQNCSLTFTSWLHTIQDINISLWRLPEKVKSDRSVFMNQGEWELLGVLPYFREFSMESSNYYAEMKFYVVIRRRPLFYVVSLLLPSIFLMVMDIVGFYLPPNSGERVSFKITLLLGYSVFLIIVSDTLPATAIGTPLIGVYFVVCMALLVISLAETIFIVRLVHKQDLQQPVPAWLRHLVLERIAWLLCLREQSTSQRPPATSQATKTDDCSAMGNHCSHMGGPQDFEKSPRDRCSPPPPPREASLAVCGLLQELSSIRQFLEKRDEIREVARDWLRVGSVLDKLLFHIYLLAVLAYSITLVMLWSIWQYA
# UniProt O95264, sequence (whole entry, looked up): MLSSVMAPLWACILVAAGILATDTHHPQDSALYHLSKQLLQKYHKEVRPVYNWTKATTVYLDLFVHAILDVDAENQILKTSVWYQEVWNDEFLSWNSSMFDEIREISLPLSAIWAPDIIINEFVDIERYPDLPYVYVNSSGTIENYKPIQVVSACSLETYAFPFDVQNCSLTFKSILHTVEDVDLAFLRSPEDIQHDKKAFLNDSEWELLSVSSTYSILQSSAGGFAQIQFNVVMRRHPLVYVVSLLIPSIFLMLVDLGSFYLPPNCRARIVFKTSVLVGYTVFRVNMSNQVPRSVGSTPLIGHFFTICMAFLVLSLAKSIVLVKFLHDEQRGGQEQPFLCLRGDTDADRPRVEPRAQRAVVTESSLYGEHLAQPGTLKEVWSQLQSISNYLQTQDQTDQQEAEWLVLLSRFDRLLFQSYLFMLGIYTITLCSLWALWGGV
# UniProt P0DOF5, sequence (whole entry, looked up): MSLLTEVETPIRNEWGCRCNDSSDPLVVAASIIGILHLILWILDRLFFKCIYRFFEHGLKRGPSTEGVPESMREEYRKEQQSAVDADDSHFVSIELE
# UniProt P21554, sequence (whole entry, looked up): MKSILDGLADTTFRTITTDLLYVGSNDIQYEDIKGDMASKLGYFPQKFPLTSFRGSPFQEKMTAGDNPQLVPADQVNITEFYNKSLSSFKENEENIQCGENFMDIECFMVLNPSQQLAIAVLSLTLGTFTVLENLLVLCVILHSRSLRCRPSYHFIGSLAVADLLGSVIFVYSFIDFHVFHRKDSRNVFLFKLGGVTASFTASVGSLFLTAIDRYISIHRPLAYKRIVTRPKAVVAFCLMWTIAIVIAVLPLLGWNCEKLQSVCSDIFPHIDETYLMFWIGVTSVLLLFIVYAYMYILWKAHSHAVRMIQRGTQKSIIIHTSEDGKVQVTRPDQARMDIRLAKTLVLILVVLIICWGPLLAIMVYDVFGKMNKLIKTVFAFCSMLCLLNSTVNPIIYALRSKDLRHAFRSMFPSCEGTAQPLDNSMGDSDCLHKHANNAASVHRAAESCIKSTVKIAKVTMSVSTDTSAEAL
# UniProt P22303, sequence (whole entry, looked up): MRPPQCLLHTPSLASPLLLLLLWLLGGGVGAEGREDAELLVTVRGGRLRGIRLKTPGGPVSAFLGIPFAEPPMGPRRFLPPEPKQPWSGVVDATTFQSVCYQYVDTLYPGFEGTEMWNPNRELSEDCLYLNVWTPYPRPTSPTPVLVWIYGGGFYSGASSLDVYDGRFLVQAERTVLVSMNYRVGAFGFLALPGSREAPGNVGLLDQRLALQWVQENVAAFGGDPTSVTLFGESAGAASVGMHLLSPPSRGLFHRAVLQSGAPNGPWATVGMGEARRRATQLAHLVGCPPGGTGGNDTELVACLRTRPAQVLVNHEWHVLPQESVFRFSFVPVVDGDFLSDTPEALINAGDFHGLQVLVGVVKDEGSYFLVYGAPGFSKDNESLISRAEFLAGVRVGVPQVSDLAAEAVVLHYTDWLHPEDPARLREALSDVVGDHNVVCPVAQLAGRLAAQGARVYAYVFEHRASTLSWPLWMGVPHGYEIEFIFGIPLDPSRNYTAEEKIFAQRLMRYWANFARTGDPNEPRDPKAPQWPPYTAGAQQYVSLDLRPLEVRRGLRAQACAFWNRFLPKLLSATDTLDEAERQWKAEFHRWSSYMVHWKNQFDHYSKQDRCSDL
# UniProt P33533, sequence (whole entry, looked up): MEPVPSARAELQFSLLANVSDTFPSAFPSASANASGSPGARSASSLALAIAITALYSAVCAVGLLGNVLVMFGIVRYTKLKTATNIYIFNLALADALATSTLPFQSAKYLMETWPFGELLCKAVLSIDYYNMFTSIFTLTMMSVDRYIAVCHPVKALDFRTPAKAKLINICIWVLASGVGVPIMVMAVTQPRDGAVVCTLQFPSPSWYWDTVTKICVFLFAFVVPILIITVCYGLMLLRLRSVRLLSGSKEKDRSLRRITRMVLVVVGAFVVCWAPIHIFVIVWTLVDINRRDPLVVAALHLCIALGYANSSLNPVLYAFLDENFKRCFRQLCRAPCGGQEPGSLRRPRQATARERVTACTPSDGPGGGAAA
# UniProt C7C422, sequence (whole entry, looked up): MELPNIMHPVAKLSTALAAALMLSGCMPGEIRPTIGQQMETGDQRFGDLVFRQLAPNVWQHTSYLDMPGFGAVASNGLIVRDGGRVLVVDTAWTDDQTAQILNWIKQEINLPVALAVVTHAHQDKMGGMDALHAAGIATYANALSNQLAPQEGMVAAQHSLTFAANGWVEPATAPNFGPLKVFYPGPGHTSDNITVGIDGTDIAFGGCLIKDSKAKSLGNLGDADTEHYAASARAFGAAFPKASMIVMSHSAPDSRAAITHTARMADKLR
# UniProt P35372, sequence (whole entry, looked up): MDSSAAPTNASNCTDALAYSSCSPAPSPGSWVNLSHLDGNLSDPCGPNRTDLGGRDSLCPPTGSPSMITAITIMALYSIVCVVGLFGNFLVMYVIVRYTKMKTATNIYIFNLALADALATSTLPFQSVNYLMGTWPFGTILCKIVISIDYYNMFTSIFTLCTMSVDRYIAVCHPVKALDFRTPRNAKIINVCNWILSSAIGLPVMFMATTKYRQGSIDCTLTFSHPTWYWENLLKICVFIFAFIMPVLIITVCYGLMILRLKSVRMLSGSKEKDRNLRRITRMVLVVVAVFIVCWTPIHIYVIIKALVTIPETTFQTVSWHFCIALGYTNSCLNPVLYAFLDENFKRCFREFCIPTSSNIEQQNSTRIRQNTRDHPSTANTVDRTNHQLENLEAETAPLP
# UniProt P21397, sequence (whole entry, looked up): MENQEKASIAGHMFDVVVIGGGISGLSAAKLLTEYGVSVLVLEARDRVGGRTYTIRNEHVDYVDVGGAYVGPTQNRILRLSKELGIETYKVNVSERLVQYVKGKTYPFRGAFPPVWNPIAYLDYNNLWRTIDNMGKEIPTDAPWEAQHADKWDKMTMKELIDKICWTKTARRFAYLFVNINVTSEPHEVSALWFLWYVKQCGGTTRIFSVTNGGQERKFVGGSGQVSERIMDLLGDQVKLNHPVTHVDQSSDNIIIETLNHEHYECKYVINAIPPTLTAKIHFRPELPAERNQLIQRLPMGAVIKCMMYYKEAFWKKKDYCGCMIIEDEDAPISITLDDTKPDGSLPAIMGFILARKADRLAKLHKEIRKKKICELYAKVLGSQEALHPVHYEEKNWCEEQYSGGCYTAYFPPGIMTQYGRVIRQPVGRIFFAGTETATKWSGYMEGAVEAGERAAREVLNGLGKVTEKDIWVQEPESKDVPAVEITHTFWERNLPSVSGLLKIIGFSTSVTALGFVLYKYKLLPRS
# UniProt P42866, sequence (whole entry, looked up): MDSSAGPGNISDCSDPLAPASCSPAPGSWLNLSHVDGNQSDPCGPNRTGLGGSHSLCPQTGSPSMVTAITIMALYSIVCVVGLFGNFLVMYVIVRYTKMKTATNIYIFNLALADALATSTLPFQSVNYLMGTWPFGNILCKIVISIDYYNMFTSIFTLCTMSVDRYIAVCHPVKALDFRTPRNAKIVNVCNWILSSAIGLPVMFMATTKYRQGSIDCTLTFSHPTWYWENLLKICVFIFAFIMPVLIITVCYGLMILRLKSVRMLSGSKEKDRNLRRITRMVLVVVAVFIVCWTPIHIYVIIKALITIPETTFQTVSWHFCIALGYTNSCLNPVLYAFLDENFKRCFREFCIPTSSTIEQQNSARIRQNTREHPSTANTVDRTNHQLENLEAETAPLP
SMILES,tested on,test,test system,conditions,scale,measurement,result
CSCC[C@H](NC(=O)[C@H](Cc1ccccc1)NC(=O)CNC(=O)[C@@H](C)NC(=O)[C@@H](N)Cc1ccc(O)cc1)C(=O)N1CCC[C@H]1C(=O)N[C@@H](CC(C)C)C(=O)N[C@@H](Cc1c[nH]c2ccccc12)C(=O)NCc1cc(C(F)(F)F)cc(C(F)(F)F)c1,"Delta-type opioid receptor (OPRD1, Homo sapiens, UniProt P41143)",agonist,,,,Emax,60 ± 2%
Cc1cc(O)cc(C)c1C[C@H](N)C(=O)N[C@H](C)C(=O)N[C@@H](Cc1ccccc1)C(=O)N[C@@H](CCC(=O)O)C(=O)N[C@H](C(=O)N[C@H](C(=O)NCC(N)=O)C(C)C)C(C)C,"Delta-type opioid receptor (Oprd1, Rattus norvegicus, UniProt P33533)",,,,reference: Ki mu over Ki delta,selectivity ratio,10
CN[C@H](CC(C)C)C(=O)N[C@H]1C(=O)N[C@@H](CC(N)=O)C(=O)N[C@H]2C(=O)N[C@H]3C(=O)N[C@H](C(=O)N[C@H](C(=O)O)c4cc(O)cc(O)c4-c4cc3ccc4O)[C@H](O)c3ccc(c(Cl)c3)Oc3cc2cc(c3O[C@@H]2O[C@H](CO)[C@@H](O)[C@H](O)[C@H]2O[C@H]2C[C@](C)(NCc3ccc(-c4ccc(Cl)cc4)cc3)[C@H](O)[C@H](C)O2)Oc2ccc(cc2Cl)[C@H]1O,,,mouse,intravenous,,maximum tolerated dose,75 mg/kg
CC[C@H](C)C(=O)N1CCC(NC(=O)Nc2ccc(OC(F)(F)F)c(F)c2)CC1,human CYP2B6,inhibitor,,up to solubility limit,,inhibition,no inhibition
CCCCCCCc1c(C(=O)NCCc2ccc(N3CCCCC3)cc2)[nH]c2ccc(Cl)cc12,"Cannabinoid receptor 1 (CNR1, Homo sapiens, UniProt P21554)","allosteric modulator, radioligand binding",,"with: [3H]CP55,940",,cooperativity factor alpha,7.4
NC1CC1c1ccc(NC(=O)c2cccc(NC(=O)OCc3ccccc3)c2)cc1 (stereo not drawn),"Amine oxidase [flavin-containing] A (MAOA, Homo sapiens, UniProt P21397)",,,concentration not given,,inhibition,46%
COc1cc(O)c2c(c1)/C=C/C[C@H](O)[C@H](O)C(=O)/C=C\C[C@H](C)OC2=O,"Cyclin-G-associated kinase (GAK, Homo sapiens, UniProt O14976)",,,10 µM,reference: control,remaining binding,10%
CC(C)C[C@@H](N)C(=O)NCC(=O)N[C@H](C)C(=O)N[C@H](CO)C(=O)N[C@H](Cc1c[nH]c2ccccc12)C(=O)N[C@H](Cc1c[nH]cn1)C(=O)N[C@H](CCCNC(=N)N)C(=O)N1CCC[C@@H]1C(=O)N[C@H](CC(=O)O)C(=O)N[C@H](CCCCN)C(=O)O,"C-X-C chemokine receptor type 4 (CXCR4, Homo sapiens, UniProt P61073)",competitive antibody binding,,concentration not given,reference: compound over parent V1 peptide,binding improvement,13.7 fold
CC(C)(C)c1ccc(C(=O)Nc2cc(Cl)c(Br)cc2C(=O)O)cc1,mammalian kinase panel,,,5 µM,highest of any kinase,inhibition,≤ 10%
O=C(N[C@H]1CC[C@@]2(O)[C@H]3Cc4ccc(O)c5c4[C@@]2(CCN3CC2CC2)[C@H]1O5)c1cccc2ccoc12,"Mu-type opioid receptor (Oprm1, Mus musculus, UniProt P42866)",agonist,,,reference: DAMGO,Emax,12.9%
CC(C)[C@@H](CN1CC[C@@](C)(c2cccc(C(N)=O)c2)[C@@H](C)C1)NC(=O)[C@H]1Cc2ccc(O)cc2CN1,"Mu-type opioid receptor (OPRM1, Homo sapiens, UniProt P35372)",antagonist,,with: DAMGO,,Ke,21 ± 3 nM
CC1=C(C)C(=O)OC(C(C)(O)C2(O)CCC3(O)C4CC5OC56C(O)C=CC(=O)C6(C)C4CCC32C)C1 (stereo not drawn),SK-BR-3,cell growth,,,,IC50,1700 nM
O=C(OCC[18F])C1C2CCC(CC1c1ccc(/C=C\I)cc1)N2 (stereo not drawn),SERT,HRRT PET,"awake rhesus monkey, pons",,,time to peak uptake,> 75 min
O=c1[nH]c(SC[C@H](O)[C@H](O)[C@H](O)CO)c([N+](=O)[O-])c(=O)[nH]1,ribH,enzyme kinetics,,pH 7.0,,kcat,0.00333 ± 0.000167 s⁻¹
C1CC2C3C4C5CCC4C24CNCC54C13,Matrix protein 2,inhibitor,,100 µM,,inhibition,40 ± 1%
COc1ccc2c(c1OC)CO/C(=C\c1cc[n+](Cc3ccc(F)cc3)cc1)C2=O,"Acetylcholinesterase (ACHE, Homo sapiens, UniProt P22303)",,,,reference: BChE IC50 over AChE IC50,selectivity ratio,> 230
O=C([O-])CN1CCN(CC(=O)NCCN(Cc2ccccn2)Cc2ccccn2)CCN(CC(=O)[O-])CCN(CC(=O)NCCN(Cc2ccccn2)Cc2ccccn2)CC1.[Gd+3],"Albumin, Zn(II)-bound (ALB, Homo sapiens, UniProt P02768)",,,"0.47 T bound to HSA, with: Zn(II)",,relaxivity r1,17.5 mM⁻¹ s⁻¹
CC(=O)N[C@@H](Cc1ccccc1)C(=O)N[C@@H](CC(=O)O)C(=O)N[C@@H](CC(N)=O)C(=O)N1CCC[C@H]1C(=O)N[C@H](C(=O)N[C@@H](CO)C(=O)O)C(C)C,"LDL receptor, position 807 mutant",,,,reference: native LDL receptor,internalization index,0.2
CC(CCC(=O)O)C1CCC2C3CCC4CC(OC(=O)C(N)CC(=O)O)CCC4(C)C3CCC12C (stereo not drawn),"Beta-galactoside alpha-2,6-sialyltransferase 1 (ST6GAL1, Homo sapiens, UniProt P15907)",,,,reference: IC50 ST3GAL1 over IC50 ST6GAL1,selectivity ratio,3
CCN(CC)C12C3CCC4C3C3C(CCC31)C42,Matrix protein 2,inhibitor,,100 µM,,inhibition,0%
CSCC[C@H](NC(=O)[C@H](Cc1ccccc1)NC(=O)CNC(=O)[C@@H](C)NC(=O)[C@@H](N)Cc1ccc(O)cc1)C(=O)N1CCC[C@H]1C(=O)N[C@@H](CC(C)C)C(=O)N[C@@H](Cc1c[nH]c2ccccc12)C(=O)NCc1cc(C(F)(F)F)cc(C(F)(F)F)c1,"Delta-type opioid receptor (Oprd1, Mus musculus, UniProt P32300)",agonist,,,,Emax,100%
CC(CCC(=O)NC(CCCCNC(=O)C(F)(F)F)C(=O)O)C1CCC2C3C(O)CC4CC(O)CCC4(C)C3CC(O)C12C (stereo not drawn),"Ileal sodium/bile acid cotransporter (SLC10A2, Homo sapiens, UniProt Q12908)",substrate,,,,Km,39.4 ± 23.8 µM
CC1=C(C)C(=O)OC(C(C)(O)C2(O)CCC3(O)C4CC5OC56CC=CC(=O)C6(C)C4CCC32C)C1 (stereo not drawn),T47D,cell growth,,,,IC50,160 nM
CC(=O)N[C@H]1[C@@H](OC[C@H](NC(=O)CNC(=O)[C@@H]2CCCN2C(=O)[C@H](C)NC(=O)[C@@H]2CCCN2C(=O)[C@@H](N)CCCNC(=N)N)C(=O)N[C@H](C(=O)N[C@@H](C)C(=O)N2CCC[C@H]2C(=O)N2CCC[C@H]2C(=O)N[C@@H](C)C(=O)N[C@@H](Cc2c[nH]cn2)C(=O)NCC(=O)O)[C@@H](C)O)O[C@H](CO)[C@H](O)[C@@H]1O,14 A monoclonal antibody,SPR,,,,koff,0.0514 s⁻¹
O=c1[nH]c(NC[C@H](O)[C@H](O)[C@H](O)CO)c([N+](=O)[O-])c(=O)[nH]1,ribH,enzyme kinetics,,pH 7.0,,kcat,0.002 ± 0.000167 s⁻¹
N[C@@H](CN[C@@H](CN[C@@H](CC(=O)O)C(=O)O)C(=O)O)C(=O)O,"Metallo-beta-lactamase type 2 (blaNDM-1, Klebsiella pneumoniae, UniProt C7C422)","enzyme activity, inhibitor",,with: Zn2+ 10 µM,,Hill coefficient,~4
O=C(CCCCCCCCCN=C=S)CC(=O)N[C@H]1CCOC1=O,"Transcriptional activator protein LasR (lasR, Pseudomonas aeruginosa, UniProt P25084)",partial agonist,,,,Emax,~40%
CCCCCC1=C(NCC)C(=O)C(C/C=C(\C)CCC=C(C)C)=C(O)C1=O,cannabinoid receptor CB2,,,concentration not given,,activity,inactive
CN1CCN(c2nc3ccccc3nc2Cl)CC1,"Serotonin 3 (5-HT3) receptor (Homo sapiens, UniProt O95264+P46098)",ion current,,"concentration not given, 5-HT3AB receptor, with: serotonin",,recovery time from inhibition,~8 min and < 8 min
CC(C)C[C@@H]1NC(=O)[C@H](Cc2ccc(O)cc2)NC(=O)[C@H](CO)NC(=O)[C@H](C)NC(=O)[C@@H](NC(=O)[C@@H]2CCCN2C(=O)[C@H](CC(N)=O)NC(=O)[C@H](Cc2ccc(O)cc2)NC(=O)[C@H](CCCCN)NC(=O)[C@H](C)NC(=O)[C@H](C)NC(=O)[C@@H](N)CC(N)=O)CSC1=O,"Accessory gene regulator protein C (Staphylococcus epidermidis, UniProt Q5HMY3)","group-I agr signalling, inhibitor",,concentration not given,,agr system activity,inhibited

# Some of these lines once more:
SMILES,tested on,test,test system,conditions,scale,measurement,result
COc1ccc2c(c1OC)CO/C(=C\c1cc[n+](Cc3ccc(F)cc3)cc1)C2=O,"Acetylcholinesterase (ACHE, Homo sapiens, UniProt P22303)",,,,reference: BChE IC50 over AChE IC50,selectivity ratio,> 230
CC(=O)N[C@@H](Cc1ccccc1)C(=O)N[C@@H](CC(=O)O)C(=O)N[C@@H](CC(N)=O)C(=O)N1CCC[C@H]1C(=O)N[C@H](C(=O)N[C@@H](CO)C(=O)O)C(C)C,"LDL receptor, position 807 mutant",,,,reference: native LDL receptor,internalization index,0.2
CN[C@H](CC(C)C)C(=O)N[C@H]1C(=O)N[C@@H](CC(N)=O)C(=O)N[C@H]2C(=O)N[C@H]3C(=O)N[C@H](C(=O)N[C@H](C(=O)O)c4cc(O)cc(O)c4-c4cc3ccc4O)[C@H](O)c3ccc(c(Cl)c3)Oc3cc2cc(c3O[C@@H]2O[C@H](CO)[C@@H](O)[C@H](O)[C@H]2O[C@H]2C[C@](C)(NCc3ccc(-c4ccc(Cl)cc4)cc3)[C@H](O)[C@H](C)O2)Oc2ccc(cc2Cl)[C@H]1O,,,mouse,intravenous,,maximum tolerated dose,75 mg/kg
